# Results collected from several papers.
# Every numbered part comes from another study and shows a few of its results, in no order. Positions count from the first letter of the parent shown.

# Series 1 — technique: protein-binding microarray; molecule type: double-stranded DNA, one strand shown; sample: in vitro; tested at: 250 nM; notes: 60-bp whole probe; together with: salmon DNA 0.4 mg/ml; reference: random background probes; reading: higher = stronger binding; all sequences stand within: GCCTAGCAC … GTCTTGATTCGCTTGACGCTGCTG
# Target: Interferon regulatory factor 7, full length, phosphomimetic (IRF7, Homo sapiens, UniProt Q92985, residues 1-503, S101K/S471D/S472D/S475D/S476D/S477D/S483D/S484D/S487D)
# Residues (chain): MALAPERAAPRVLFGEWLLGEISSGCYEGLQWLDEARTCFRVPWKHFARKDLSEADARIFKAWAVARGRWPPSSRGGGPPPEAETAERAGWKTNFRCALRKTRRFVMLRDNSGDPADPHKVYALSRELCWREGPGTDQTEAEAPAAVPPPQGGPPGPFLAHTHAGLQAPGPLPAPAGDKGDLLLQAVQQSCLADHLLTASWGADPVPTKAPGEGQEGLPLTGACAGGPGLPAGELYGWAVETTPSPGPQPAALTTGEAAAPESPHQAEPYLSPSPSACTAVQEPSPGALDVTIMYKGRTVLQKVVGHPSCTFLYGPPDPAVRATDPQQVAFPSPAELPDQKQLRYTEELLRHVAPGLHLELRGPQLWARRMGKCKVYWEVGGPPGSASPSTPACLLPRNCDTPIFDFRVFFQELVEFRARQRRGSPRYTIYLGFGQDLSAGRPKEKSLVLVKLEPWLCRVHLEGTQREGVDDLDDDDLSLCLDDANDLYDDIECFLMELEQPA
Sequence,log fluorescence [z-score]
TACCTTTTCACTTTACACACGTGCTAG,2.29
GACAGACTGGACTATCGGGACGTGCTA,-0.546
TCATTTCTGTTGTCTGTGACTGTGCTA,0.969
GACGGCTTCGACACTGGGGACGTGCTA,-0.515
TCAGCTCACACCTGTCATACTGTGCTA,-0.493
CTCTGCTTGTATCTGGGTTCGTGCTAG,0.177
GACGGTATCGGTCTCGCGACGTGCTAG,0.33
TTAGGTTTCGACTTTCGGTCAGTGCTA,10.2

# Series 2 — target: CEP164, C-terminal peptide (human); technique: DHFR complementation, deep sequencing; sample: yeast; reference: wild type; reading: higher = weaker binding
# Notes: single substitutions, model-inferred values
# Parent: PDZK1, PDZ domain 2 (human); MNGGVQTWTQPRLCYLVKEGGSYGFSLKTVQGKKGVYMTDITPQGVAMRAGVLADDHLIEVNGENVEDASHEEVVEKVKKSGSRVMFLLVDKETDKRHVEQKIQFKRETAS; partner HNRVKVYRF
Substitution,binding free energy change [kcal/mol]
I41C,1.34
Y23S,1.48
V36A,-0.0525
W8P,-0.0975
G3M,0.0315
D56S,0.0435
N62R,1.05
K33Q,-0.0294

# Series 3 — target: CREM, bZIP domain (human); technique: DHFR protein complementation; sample: yeast; reference: wild-type JUN-FOS pair; reading: higher = stronger binding
# Notes: single substitutions, most at no-binding floor
# Parent: JUN, bZIP domain (human); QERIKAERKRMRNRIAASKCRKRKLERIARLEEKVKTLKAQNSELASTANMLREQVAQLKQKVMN; partner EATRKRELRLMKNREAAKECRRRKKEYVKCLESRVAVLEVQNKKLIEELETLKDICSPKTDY
Substitution,binding fitness [natural log]
L52G,-1.53
K36G,-1.52
L52Y,-1.51
E33W,-1.41
R53G,-1.41
E44Q,-1.36
I28A,-1.49
K39P,-1.48

# Other studies, line by line
Structure (SMILES),species,sample,tested at,time,quantity,value
COc1ccccc1CNC(=O)c1cc2c(s1)CS(=O)(=O)C2,mouse,microsomes or S9,2 µM,0.5 h,remaining compound,49.6%

# Excerpt of the above (series 3):
Substitution,binding fitness [natural log]
R53G,-1.41
E44Q,-1.36
I28A,-1.49
